Experimental data pooled from the literature.
Parts stem from different laboratories: compare values within a part only.
UniProt Q9NQU5, sequence (whole entry, looked up): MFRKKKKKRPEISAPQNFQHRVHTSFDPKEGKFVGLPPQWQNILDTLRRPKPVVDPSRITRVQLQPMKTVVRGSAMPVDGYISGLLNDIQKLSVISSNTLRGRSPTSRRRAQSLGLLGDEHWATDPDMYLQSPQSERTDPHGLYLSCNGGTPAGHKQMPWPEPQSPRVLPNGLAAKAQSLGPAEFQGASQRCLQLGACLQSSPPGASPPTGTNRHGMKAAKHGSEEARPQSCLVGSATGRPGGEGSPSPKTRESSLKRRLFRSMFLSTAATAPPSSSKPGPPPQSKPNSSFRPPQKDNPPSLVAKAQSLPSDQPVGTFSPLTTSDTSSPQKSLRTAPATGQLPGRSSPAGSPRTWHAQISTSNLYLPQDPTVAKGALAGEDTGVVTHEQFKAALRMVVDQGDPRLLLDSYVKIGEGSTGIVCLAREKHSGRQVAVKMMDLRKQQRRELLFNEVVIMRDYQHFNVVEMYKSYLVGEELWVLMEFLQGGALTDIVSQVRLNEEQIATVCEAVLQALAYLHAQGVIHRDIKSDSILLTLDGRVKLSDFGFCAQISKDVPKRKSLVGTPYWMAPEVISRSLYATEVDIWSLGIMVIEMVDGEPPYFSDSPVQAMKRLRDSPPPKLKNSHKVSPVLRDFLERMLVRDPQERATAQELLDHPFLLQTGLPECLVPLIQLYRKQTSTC
UniProt Q13153, sequence (whole entry, looked up): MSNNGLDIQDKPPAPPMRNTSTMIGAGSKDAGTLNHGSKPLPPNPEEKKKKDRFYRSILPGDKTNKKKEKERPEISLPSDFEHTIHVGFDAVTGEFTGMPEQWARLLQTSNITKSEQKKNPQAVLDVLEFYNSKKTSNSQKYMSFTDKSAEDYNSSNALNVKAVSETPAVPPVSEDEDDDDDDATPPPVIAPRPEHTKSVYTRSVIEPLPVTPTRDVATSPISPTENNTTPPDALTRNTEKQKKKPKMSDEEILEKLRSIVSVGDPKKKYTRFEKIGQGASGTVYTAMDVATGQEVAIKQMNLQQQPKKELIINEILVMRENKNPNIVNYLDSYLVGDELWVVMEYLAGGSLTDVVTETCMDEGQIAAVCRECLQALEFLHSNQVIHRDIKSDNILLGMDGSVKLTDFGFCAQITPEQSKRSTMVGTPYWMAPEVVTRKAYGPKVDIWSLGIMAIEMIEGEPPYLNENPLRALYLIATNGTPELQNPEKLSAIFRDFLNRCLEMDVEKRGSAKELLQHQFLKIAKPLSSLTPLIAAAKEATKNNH
UniProt P07333, sequence (whole entry, looked up): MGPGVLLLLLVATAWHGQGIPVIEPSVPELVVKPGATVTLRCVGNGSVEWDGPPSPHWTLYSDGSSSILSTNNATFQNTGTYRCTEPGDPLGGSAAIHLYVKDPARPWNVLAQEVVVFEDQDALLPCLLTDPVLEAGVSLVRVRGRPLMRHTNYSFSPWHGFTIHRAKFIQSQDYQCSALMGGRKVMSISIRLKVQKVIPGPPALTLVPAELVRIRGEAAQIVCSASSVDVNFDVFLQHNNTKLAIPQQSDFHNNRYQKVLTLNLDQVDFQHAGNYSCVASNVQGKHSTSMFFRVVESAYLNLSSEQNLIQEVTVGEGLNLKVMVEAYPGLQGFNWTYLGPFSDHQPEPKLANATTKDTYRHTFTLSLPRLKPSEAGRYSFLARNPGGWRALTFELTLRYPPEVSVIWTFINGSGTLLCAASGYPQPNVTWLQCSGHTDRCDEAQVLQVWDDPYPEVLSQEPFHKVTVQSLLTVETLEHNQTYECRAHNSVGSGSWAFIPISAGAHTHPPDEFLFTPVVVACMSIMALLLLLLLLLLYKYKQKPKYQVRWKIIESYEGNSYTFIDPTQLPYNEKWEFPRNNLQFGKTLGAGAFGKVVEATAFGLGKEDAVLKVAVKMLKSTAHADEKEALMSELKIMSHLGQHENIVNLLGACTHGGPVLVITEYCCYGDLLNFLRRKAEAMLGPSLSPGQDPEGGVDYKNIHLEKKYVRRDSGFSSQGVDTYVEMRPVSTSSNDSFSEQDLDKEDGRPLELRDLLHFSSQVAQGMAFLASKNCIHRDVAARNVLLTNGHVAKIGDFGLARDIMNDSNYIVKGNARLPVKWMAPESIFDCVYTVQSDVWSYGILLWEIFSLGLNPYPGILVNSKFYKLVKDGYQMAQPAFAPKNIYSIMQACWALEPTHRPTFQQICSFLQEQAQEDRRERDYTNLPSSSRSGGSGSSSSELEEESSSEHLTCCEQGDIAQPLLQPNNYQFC
UniProt P57078, sequence (whole entry, looked up): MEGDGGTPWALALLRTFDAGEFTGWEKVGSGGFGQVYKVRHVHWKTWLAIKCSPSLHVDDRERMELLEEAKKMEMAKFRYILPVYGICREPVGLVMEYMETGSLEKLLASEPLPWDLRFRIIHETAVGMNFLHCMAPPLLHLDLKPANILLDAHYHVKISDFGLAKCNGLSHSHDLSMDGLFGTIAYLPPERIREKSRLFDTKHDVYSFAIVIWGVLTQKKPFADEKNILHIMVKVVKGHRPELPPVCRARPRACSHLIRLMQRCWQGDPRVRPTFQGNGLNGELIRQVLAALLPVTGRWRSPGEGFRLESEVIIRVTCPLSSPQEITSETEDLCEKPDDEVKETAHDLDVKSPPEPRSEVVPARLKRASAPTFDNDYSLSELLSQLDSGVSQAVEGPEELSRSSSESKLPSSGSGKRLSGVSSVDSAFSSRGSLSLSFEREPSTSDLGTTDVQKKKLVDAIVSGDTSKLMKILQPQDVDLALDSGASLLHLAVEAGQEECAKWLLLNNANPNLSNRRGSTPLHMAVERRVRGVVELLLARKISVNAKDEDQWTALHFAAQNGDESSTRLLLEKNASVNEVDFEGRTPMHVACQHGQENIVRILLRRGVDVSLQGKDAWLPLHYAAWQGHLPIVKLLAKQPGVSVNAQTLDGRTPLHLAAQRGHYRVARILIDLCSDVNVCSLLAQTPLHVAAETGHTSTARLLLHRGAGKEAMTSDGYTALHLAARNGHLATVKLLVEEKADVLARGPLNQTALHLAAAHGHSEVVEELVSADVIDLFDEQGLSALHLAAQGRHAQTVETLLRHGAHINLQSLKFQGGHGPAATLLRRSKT
UniProt P27037, sequence (whole entry, looked up): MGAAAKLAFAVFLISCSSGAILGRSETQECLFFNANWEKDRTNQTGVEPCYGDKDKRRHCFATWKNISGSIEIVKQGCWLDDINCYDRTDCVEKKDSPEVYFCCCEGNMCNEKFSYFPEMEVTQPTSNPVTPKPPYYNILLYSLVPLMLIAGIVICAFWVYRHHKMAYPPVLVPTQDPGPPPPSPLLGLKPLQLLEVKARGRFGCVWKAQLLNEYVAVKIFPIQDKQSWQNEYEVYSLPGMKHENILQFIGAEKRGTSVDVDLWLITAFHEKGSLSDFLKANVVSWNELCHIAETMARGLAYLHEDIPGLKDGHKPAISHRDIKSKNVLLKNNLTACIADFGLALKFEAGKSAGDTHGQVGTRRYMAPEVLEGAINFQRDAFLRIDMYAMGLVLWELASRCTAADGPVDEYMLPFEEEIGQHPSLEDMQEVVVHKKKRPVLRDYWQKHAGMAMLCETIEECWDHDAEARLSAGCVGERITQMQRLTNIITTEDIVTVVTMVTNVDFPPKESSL
UniProt O75116, sequence (whole entry, looked up): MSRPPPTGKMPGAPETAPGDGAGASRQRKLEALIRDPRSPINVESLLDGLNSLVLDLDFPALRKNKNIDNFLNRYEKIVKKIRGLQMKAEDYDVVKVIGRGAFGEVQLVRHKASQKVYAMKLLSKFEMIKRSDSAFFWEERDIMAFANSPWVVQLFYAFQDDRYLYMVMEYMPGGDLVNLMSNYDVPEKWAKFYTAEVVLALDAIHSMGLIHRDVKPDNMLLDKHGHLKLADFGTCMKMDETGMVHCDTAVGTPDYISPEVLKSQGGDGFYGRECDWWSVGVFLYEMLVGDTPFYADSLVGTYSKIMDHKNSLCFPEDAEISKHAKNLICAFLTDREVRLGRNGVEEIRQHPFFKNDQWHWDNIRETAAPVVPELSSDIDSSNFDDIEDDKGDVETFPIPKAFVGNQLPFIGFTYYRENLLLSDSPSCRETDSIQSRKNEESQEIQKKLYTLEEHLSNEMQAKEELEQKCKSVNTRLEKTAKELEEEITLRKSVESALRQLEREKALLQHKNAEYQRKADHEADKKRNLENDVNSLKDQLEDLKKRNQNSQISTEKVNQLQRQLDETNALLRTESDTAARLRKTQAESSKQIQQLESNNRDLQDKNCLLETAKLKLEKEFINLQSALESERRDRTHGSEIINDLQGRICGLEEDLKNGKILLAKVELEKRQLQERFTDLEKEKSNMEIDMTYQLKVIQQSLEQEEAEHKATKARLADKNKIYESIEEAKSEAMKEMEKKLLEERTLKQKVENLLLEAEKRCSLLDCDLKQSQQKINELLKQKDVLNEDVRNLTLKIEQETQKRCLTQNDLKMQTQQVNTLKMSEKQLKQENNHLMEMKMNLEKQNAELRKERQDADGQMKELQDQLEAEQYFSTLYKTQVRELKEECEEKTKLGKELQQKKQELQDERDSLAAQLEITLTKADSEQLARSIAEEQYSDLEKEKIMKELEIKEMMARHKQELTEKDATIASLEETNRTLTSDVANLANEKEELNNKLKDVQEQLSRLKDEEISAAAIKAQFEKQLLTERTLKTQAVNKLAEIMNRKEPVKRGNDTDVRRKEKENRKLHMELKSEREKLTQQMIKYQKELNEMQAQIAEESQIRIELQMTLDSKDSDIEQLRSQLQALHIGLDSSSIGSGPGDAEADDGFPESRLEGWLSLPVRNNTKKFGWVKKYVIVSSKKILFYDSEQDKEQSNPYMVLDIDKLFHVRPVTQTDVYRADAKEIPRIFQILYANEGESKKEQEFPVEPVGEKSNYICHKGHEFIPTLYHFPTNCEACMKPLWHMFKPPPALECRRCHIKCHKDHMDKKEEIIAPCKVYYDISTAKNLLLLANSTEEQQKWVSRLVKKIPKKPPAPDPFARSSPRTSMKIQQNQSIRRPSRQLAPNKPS

Sample 1 — observed: binding; tested at: 1 µM
SMILES: COc1ccc2[nH]c3c4[nH]c5ccc(OC)cc5c4c4c(c3c2c1)C(=O)NC4=O
For Phosphatidylinositol 4,5-bisphosphate 3-kinase catalytic subunit alpha isoform (PIK3CA, Homo sapiens, UniProt P42336, E545K): remaining binding read 84%.
For Serine/threonine-protein kinase Nek10 (NEK10, Homo sapiens, UniProt Q6ZWH5): remaining binding read 93%.
The remaining binding was 84% (Ephrin type-B receptor 2 (EPHB2, Homo sapiens, UniProt P29323); competition with immobilised ligand).
For Mitogen-activated protein kinase kinase kinase kinase 3 (MAP4K3, Homo sapiens, UniProt Q8IVH8); competition with immobilised ligand: remaining binding read 73%.
The remaining binding was 74% (eIF-2-alpha kinase GCN2 (EIF2AK4, Homo sapiens, UniProt Q9P2K8, S808G)).
It gave 83% for remaining binding (Receptor-interacting serine/threonine-protein kinase 4 (RIPK4, Homo sapiens, UniProt P57078)).
The remaining binding was 100% (Serine/threonine-protein kinase PAK 6 (PAK6, Homo sapiens, UniProt Q9NQU5)).
It gave 81% for remaining binding (Protein-tyrosine kinase 6 (PTK6, Homo sapiens, UniProt Q13882); competition with immobilised ligand).
Myosin light chain kinase family member 4 (MYLK4, Homo sapiens, UniProt Q86YV6) — remaining binding: 49%.

Sample 2 — species: human; medium: microsomes or S9; tested at: 2 µM; time: 0.5 h
For `CC1COc2c(N3CC4CC3CCN4C)c(F)cc3c(=O)c(C(=O)O)cn1c23` (stereo not shown), the remaining compound was 91.3%.
With `CCC(C)(C)C1CCc2c(sc(NC(=O)CC(C)CC(=O)O)c2C(N)=O)C1` (stereo not shown) the remaining compound was > 99%.
With `CC1(C)CC(NC(=O)CCCNc2nc(Cl)nc3[nH]cnc23)CC(C)(C)N1` the remaining compound was > 100%.
The remaining compound of `Cc1nnc2c3ccccc3nc(-c3ccccc3Cl)n12` is reported as 80.4%.
The remaining compound of `CCN(CC)C1c2cccc3cccc(c23)C1NS(=O)(=O)c1ccccc1` (stereo not shown) is reported as 3.11%.
`CNCc1cc(N(C)C)nc(C2CCCN2S(=O)(=O)c2ccc3c(c2)CC(=O)N3C)n1` (stereo not shown) gave a remaining compound of 97.4%.
With `Cc1nnc(SCc2nc(N)nc(Nc3ccc4ccccc4c3)n2)s1` the remaining compound was 10.5%.

Sample 3 — tested at: 1 µM
Compound: Cc1nc(Cc2cccc(C(F)(F)F)c2)sc1-c1ccc(C(N)=O)nc1
The remaining binding was 98% (Tyrosine-protein kinase ABL1, phosphorylated (ABL1, Homo sapiens, UniProt P00519); cell-free assay, competition with immobilised ligand).
For Calcium/calmodulin-dependent protein kinase type II subunit delta (CAMK2D, Homo sapiens, UniProt Q13557); cell-free assay, competition with immobilised ligand: remaining binding read 100%.
For Calcium/calmodulin-dependent protein kinase type 1 (CAMK1, Homo sapiens, UniProt Q14012); cell-free assay, competition with immobilised ligand: remaining binding read 86%.
Serine/threonine-protein kinase TNNI3K (TNNI3K, Homo sapiens, UniProt Q59H18); cell-free assay, competition with immobilised ligand — remaining binding: 100%.
It gave 100% for remaining binding (Tyrosine-protein kinase JAK3, JH1 (JAK3, Homo sapiens, UniProt P52333); cell-free assay, competition with immobilised ligand).
cGMP-dependent protein kinase 2 (PRKG2, Homo sapiens, UniProt Q13237); cell-free assay, competition with immobilised ligand — remaining binding: 84%.
For STE20/SPS1-related proline-alanine-rich protein kinase (STK39, Homo sapiens, UniProt Q9UEW8); cell-free assay, competition with immobilised ligand: remaining binding read 100%.
For Cyclin-dependent kinase 14 (CDK14, Homo sapiens, UniProt O94921); cell-free assay, competition with immobilised ligand: remaining binding read 100%.
It gave 100% for remaining binding (Wee1-like protein kinase 2 (WEE2, Homo sapiens, UniProt P0C1S8); cell-free assay, competition with immobilised ligand).
It gave 87% for remaining binding (Epidermal growth factor receptor (EGFR, Homo sapiens, UniProt P00533, L858R/T790M); cell-free assay, competition with immobilised ligand).
The remaining binding was 59% (Rho-associated protein kinase 2 (ROCK2, Homo sapiens, UniProt O75116); cell-free assay, competition with immobilised ligand).
For Serine/threonine-protein kinase RIO3 (RIOK3, Homo sapiens, UniProt O14730); cell-free assay, competition with immobilised ligand: remaining binding read 100%.
It gave 100% for remaining binding (Receptor-type tyrosine-protein kinase FLT3 (FLT3, Homo sapiens, UniProt P36888, ITD); cell-free assay, competition with immobilised ligand).
It gave 76% for remaining binding (Inhibitor of nuclear factor kappa-B kinase subunit epsilon (IKBKE, Homo sapiens, UniProt Q14164); cell-free assay, competition with immobilised ligand).
It gave 100% for remaining binding (Macrophage colony-stimulating factor 1 receptor, autoinhibited (CSF1R, Homo sapiens, UniProt P07333); cell-free assay, competition with immobilised ligand).
For ALK tyrosine kinase receptor (ALK, Homo sapiens, UniProt Q9UM73, C1156Y); cell-free assay, competition with immobilised ligand: remaining binding read 68%.
Interferon-induced, double-stranded RNA-activated protein kinase (EIF2AK2, Homo sapiens, UniProt P19525); binding, competition with immobilised ligand — remaining binding: 49%.
For Ribosomal protein S6 kinase alpha-3, C-terminal kinase domain (RPS6KA3, Homo sapiens, UniProt P51812); cell-free assay, competition with immobilised ligand: remaining binding read 99%.
The remaining binding was 85% (Activin receptor type-2A (ACVR2A, Homo sapiens, UniProt P27037); cell-free assay, competition with immobilised ligand).
The remaining binding was 90% (Cyclin-dependent kinase 4, with cyclin D3 (CDK4, Homo sapiens, UniProt P11802); cell-free assay, competition with immobilised ligand).
It gave 78% for remaining binding (Dual serine/threonine and tyrosine protein kinase (DSTYK, Homo sapiens, UniProt Q6XUX3); cell-free assay, competition with immobilised ligand).
It gave 95% for remaining binding (Tyrosine-protein kinase Lyn (LYN, Homo sapiens, UniProt P07948); cell-free assay, competition with immobilised ligand).
Serine/threonine-protein kinase PAK 1 (PAK1, Homo sapiens, UniProt Q13153); cell-free assay, competition with immobilised ligand — remaining binding: 84%.
MAP kinase-activated protein kinase 2 (MAPKAPK2, Homo sapiens, UniProt P49137); cell-free assay, competition with immobilised ligand — remaining binding: 100%.
For Serine/threonine-protein kinase SIK1 (SIK1, Homo sapiens, UniProt P57059); competition binding: remaining binding read 100%.

Sample 4 — medium: EL4 tumour; dose: dose not given; reference: vehicle
Structure (SMILES): CC(=O)N[C@@H](Cc1c[nH]c2ccccc12)C(=O)N[C@@H](CCC(=O)C=[N+]=[N-])C(=O)OC(C)C
item: S-methylcysteine; mouse, EL4 tumour-bearing — “log2 fold change”: -0.684.
item: tyrosine; mouse, EL4 tumour-bearing — “log2 fold change”: 0.31.
It gave 0.955 for “log2 fold change” (item: maltose; mouse, EL4 tumour-bearing).
The “log2 fold change” was -0.151 (item: 3'-dephospho-CoA-glutathione*; mouse, EL4 tumour-bearing).
For item: phenol sulfate; mouse, EL4 tumour-bearing: “log2 fold change” read 1.49.
For item: S-carboxymethyl-L-cysteine; mouse, EL4 tumour-bearing: “log2 fold change” read 0.412.
The “log2 fold change” was -0.303 (item: gamma-glutamyl-alpha-lysine; mouse, EL4 tumour-bearing).
For metabolomics, item: guanosine 2'-monophosphate; mouse: “log2 fold change” read 0.848.
The “log2 fold change” was 1.64 (metabolomics, item: cytidine 2'-monophosphate; mouse).
The “log2 fold change” was 0.316 (item: tryptophan; mouse, EL4 tumour-bearing).
The “log2 fold change” was -0.0287 (item: kynurenine; mouse, EL4 tumour-bearing).
